Assay results gathered from unrelated publications.
Every numbered part comes from another study and shows a few of its results, in no order. Changes are numbered by the printed parent chain.

Block 1 — technique: DHFR PCA, deep sequencing; matrix: yeast; added: (+)-ABA 0.0091 µM; relative to: wild-type fitted maximum; direction: higher = stronger binding; measurement: relative binding score
Target: ABI1, truncated, D143A, DHFR fusion (Arabidopsis thaliana)
Setting: methotrexate growth selection, single substitutions
Starting sequence: PYL1, truncated, DHFR fusion (Arabidopsis thaliana); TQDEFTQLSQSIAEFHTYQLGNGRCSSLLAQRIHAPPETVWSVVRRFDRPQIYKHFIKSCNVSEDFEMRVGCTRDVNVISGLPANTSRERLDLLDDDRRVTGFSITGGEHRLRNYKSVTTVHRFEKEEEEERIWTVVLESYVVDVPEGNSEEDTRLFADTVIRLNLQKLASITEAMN
S104F: -5.4%
F47G: -1.23%
R155I: 3.06%
E109G: -0.593%
L20A: 42.9%
S42Y: 0.929%
V121Y: -9.45%
S150I: -0.89%
K168G: -6.82%
S150H: 3.73%
N61Y: 33.4%
F56N: 2.66%
T17F: 1.54%
E4M: 19.1%
D75G: -2.36%
D159T: -7.08%
F157Y: 38.3%
D48L: -4.84%
T160C: 2.11%

Block 2 — target: CREB5, bZIP domain (human); technique: DHFR protein complementation; matrix: yeast; relative to: wild-type JUN-FOS pair; direction: higher = stronger binding; measurement: binding fitness
Setting: single substitutions, most at no-binding floor
Starting sequence: JUN, bZIP domain (human); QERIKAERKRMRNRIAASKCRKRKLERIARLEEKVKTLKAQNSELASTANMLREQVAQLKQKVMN; partner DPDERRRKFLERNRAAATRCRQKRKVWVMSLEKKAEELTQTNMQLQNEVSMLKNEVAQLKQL
A57R: -0.327 natural log
E54V: -0.629 natural log
N42E: -0.73 natural log
K34Y: -0.414 natural log
V56Q: -1.25 natural log
E32Q: -0.464 natural log
A49D: -1.3 natural log
K39A: -0.408 natural log
V56D: -1.48 natural log
E32W: -0.812 natural log
L31T: -1.11 natural log
T37N: -0.177 natural log
K39S: -0.284 natural log
A29D: -0.426 natural log
Q55F: -0.964 natural log
R53S: -1.13 natural log
S43E: -0.0999 natural log
L38N: -1.36 natural log
E44V: -0.382 natural log
V35T: -1.06 natural log
Q55I: -0.651 natural log
A46M: -0.192 natural log
Q41F: -1.38 natural log
R30V: -0.143 natural log
T48F: -0.576 natural log

Block 3 — target: CCND2, cyclin fold, Cln2 fusion (human); technique: yeast growth competition, sequencing; matrix: yeast; setting: weak parent motif; relative to: not given; direction: higher = stronger binding; measurement: normalised enrichment score
Starting sequence: CDKN1B docking peptide (human); PSACRNLFGPVDH
R5W: 0.0238
R5F: 0.0905
F8E: 0.0783
S2N: -0.0751
C4D: 0.19
D12H: 0.188
F8A: 0.137
G9K: 0.36
A3P: -0.0452
D12S: -0.0406
G9I: 0.22
G9P: -0.135
F8S: 0.352
S2Y: -0.133
P10L: 0.15
S2H: 0.225
S2M: -0.0278
H13Y: 0.115
L7R: 0.0797
P10M: -0.156

Block 4 — technique: RNA Bind-n-Seq; form: RNA; matrix: in vitro; concentration: 365 nM; relative to: no-protein control; direction: higher = stronger binding; measurement: RBNS enrichment (R)
Target: RNA binding protein fox-1 homolog 2, RRM domain, GST-SBP tag (RBFOX2, Homo sapiens, UniProt O43251-10, residues 100-194)
Setting: natural RNA segment, single round, ends assumed
All sequences stand within: GGGAGUUCUACAGUCCGACGAUC … UGGAAUUCUCGGGUGCCAA
Construct (chain): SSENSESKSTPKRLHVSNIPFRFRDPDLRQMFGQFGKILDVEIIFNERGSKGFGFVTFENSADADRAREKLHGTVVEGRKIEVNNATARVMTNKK
CAGGCUGCCUAGACUCACAGCCUCGGGACCGUUGCCACGGCCUGUCUUCUCGUUCAGGCCUGCCUCUGACAGCACUCACCAUGAGGACAUUCCAUCCUUCACCCCCUCCU: 0.362
CCUCAUUCUGGUUUAUUUAUUAUGAACUUCCAAGUUAUUUAAAUGAAGAUUUCCUUCUGCAGUAUUUUCUUGAGAUAACAUAUUUGCUUUCCACCAUGUCCUGGGGGCCU: 0.732
GAAUGCGGUCCACCUUUCUAUGUACUCUAGCUUCCCUCUCUUCAGGUUGAUAUAGCGACAUUACCUGGGCUCUGUGCUGUCCUGUGGGUGGAGGCCAUUAUCACUGGGCU: 0.546
CACUUCCCUACACAUCUAUGGGUAUCACACCCAAGACUACCCACCAAGCUCAUACAGGGAACCACACCCAACACUUAGACAUGCGAACAAGCAGCCCCCAGCGAGGGUCU: 0.447
UCACAAGAUCUCCUCCUCAGUGUCUGUCUGUCUGUCUGUCUGUCUGCCUGGCAUCUGAUGGGUCAGGUCAAGCCCGUGCUGGUUUUGACUAAGGGUAGAGACUAAGGGGA: 0.755
GGGUCCCAAAUAUGAUAAUCACGUGGCACCUCUGGCAUUGCUCCCUUGGGCUGUCACUGGGGACUGGCAGUGCCUAGUGAGAGAGAGCAUCAUACUUCAUGAUGUCAGAG: 0.492
UUUUCUUUGGAUCCCUGUCCAAUAACCUCUGUGGAAUCUCAUUCCCUAAUUGUUGAUACUCAUUUUCUCCGUUUGCAAAAUGAAGAUACUCAUUGUUAGGAUCCUACUGC: 0.332
UGAAAAGGGCAAGAGGAAACCAGGGCAGUUCUAGAGGAGUGCUGGUGACUGGAUAGCAGUUUUAAGUGGCGUUCACCUAGUCAACACGACCGCGUGUGUUGCCCCUGCCC: 0.827
GCCUGCCCCUCUCAACCUUCUGCACCUCUGCCUCCAACUUGUCUCGGGAGAUUGAGUCUGCACAUCACCAGUUGCCAUGUUCACUGGGCCAGUGCCCACCCGUCCACGUU: 1.54
AAUUCCCAACAAACAUUGAUGCUGACAGUCAUGCAGUCUGGGAGUGGGGAAGUGAUCUUUUGUUCCCAUCCUCUUCUUUUAGCAGUAAAAUAGCUGAGGGAAAAGGGAGG: 0.354
GGGCUCUAGGCAGGCCGACAAGGUUACACCUCCCAGAGCUUGUGAUCUUCAUUUUCUGACAGUCAAAGUGUGAAGGAACCCAGACUUCCCCGAGCCACGGUGUUCAGUCA: 0.4
GGCCUCUGAGGUCACCUUCCCUUCCGGCCUGCUUGCUUUGUCUUACAAGACUUCUUGGCUUUUCCAAAGACAGAGAUUUCUGGGGGGAAGCCGAAUAUUUCUACCUAAAC: 0.777

For quick reference, copied from above (block 1):
S150I: -0.89%
K168G: -6.82%
T160C: 2.11%
D48L: -4.84%
N61Y: 33.4%
S104F: -5.4%
L20A: 42.9%
F56N: 2.66%
R155I: 3.06%
